Experimental data of several laboratories.
Parts stem from different laboratories: compare values within a part only. Values joined by “and” are separate records of one study, mostly repeats; a detail may differ. pEC50: −log10 of the molar value.
UniProt Q7KZI7, sequence (whole entry, looked up): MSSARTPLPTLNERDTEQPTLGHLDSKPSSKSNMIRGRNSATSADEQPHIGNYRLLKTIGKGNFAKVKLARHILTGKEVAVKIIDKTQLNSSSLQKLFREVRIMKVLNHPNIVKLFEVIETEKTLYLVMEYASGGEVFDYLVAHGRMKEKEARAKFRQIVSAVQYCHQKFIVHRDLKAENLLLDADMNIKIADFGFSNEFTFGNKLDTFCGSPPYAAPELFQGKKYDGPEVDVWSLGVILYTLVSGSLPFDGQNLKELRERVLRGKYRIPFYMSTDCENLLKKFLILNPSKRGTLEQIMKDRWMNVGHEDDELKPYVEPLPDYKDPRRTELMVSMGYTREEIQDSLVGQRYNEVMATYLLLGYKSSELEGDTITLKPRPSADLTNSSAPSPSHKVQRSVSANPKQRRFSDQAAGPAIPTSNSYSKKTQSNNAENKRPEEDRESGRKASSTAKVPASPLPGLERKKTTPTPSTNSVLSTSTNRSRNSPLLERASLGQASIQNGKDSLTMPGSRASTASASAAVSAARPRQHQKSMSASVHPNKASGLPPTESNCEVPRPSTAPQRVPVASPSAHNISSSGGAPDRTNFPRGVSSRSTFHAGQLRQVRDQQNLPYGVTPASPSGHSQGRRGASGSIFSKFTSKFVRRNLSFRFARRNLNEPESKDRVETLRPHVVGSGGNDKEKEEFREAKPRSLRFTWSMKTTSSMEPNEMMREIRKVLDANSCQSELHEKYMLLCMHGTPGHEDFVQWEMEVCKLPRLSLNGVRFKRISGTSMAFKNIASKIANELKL

Study 1 — observed: enzyme activity; mode: inhibitor; tested at: 0.5 µM; reference: control; endpoint: remaining activity
Target: Mitogen-activated protein kinase kinase kinase 9 (MAP3K9, Homo sapiens, UniProt P80192)
UniProt P80192, sequence (whole entry, looked up): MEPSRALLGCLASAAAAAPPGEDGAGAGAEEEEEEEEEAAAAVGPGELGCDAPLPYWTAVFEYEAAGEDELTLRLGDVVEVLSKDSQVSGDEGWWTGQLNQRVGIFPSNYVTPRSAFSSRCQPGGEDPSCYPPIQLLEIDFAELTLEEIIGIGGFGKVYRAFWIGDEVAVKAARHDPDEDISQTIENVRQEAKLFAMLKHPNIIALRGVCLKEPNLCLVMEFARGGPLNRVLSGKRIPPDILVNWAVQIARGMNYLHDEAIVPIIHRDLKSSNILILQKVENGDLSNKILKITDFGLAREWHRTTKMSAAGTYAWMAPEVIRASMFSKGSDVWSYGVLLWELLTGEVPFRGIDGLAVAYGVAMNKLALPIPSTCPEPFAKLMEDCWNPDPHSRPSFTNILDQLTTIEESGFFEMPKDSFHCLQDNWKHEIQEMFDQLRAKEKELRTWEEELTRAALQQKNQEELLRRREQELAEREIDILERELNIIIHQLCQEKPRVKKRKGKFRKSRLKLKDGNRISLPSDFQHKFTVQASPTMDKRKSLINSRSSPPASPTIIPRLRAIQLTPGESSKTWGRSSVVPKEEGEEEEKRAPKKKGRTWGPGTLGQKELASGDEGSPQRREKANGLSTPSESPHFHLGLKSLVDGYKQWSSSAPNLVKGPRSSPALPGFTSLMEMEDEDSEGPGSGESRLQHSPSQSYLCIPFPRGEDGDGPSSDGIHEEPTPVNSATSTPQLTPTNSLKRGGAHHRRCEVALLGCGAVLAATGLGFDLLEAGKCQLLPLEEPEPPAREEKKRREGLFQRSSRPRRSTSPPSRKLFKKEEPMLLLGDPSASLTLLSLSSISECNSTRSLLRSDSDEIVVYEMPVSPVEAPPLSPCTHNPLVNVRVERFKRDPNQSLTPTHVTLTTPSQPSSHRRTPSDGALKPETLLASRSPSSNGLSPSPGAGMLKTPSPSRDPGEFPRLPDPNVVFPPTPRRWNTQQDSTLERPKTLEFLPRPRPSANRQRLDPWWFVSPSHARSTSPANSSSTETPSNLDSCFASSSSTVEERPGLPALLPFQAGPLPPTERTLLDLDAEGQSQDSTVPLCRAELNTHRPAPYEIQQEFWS
N#CC(c1ccnc(NCCc2cccnc2)n1)c1nc2ccccc2s1 (centres unmarked): 100%
Clc1ccc(Nc2nnc(Cc3ccncc3)c3ccccc23)cc1: 113%
O=Nc1c(-c2c(O)[nH]c3ccccc23)[nH]c2ccccc12: 19.1%
COc1cc2c(N3CCN(C(=O)Nc4ccc(OC(C)C)cc4)CC3)ncnc2cc1OCCCN1CCCCC1: 108%
CNc1cc2c(Nc3cccc(Br)c3)ncnc2cn1: 94.4%
NC(=O)c1cccc(-c2cc(Nc3ccc(OC(F)(F)F)cc3)ncn2)c1: 95.7%

Study 2 — observed: cell-free assay; technique: competition with immobilised ligand; tested at: 1 µM; endpoint: remaining binding
Compound: O=C(NC[C@@H]1[C@H]2CN(C(=O)OCc3cc(C(F)(F)F)cc(C(F)(F)F)c3)C[C@@H]12)c1ccc2[nH]nnc2c1
MAP3K9 (Homo sapiens, UniProt P80192): 100%
CAMKK1 (Homo sapiens, UniProt Q8N5S9): 91%
SIK3 (Homo sapiens, UniProt Q9Y2K2): 79%
EGFR (Homo sapiens, UniProt P00533): 99%
RET (Homo sapiens, UniProt P07949): 100%
MARK2 (Homo sapiens, UniProt Q7KZI7): 89%
ERBB2 (Homo sapiens, UniProt P04626): 100%
NEK9 (Homo sapiens, UniProt Q8TD19): 77%
MARK3 (Homo sapiens, UniProt P27448): 100%
PIK3CA (Homo sapiens, UniProt P42336): 74%
ACVR1 (Homo sapiens, UniProt Q04771): 100%

Study 3 — species: C57BL/6 IFN-γ knockout mouse female; medium: plasma; route: oral; dose: 10 mg/kg; time: 7 h; endpoint: plasma concentration
CNC(=O)c1ccc(-c2cnn3ccc(C(=O)N(C[C@H]4CCC(=O)O4)c4ccc(OC(F)(F)F)cc4)cc23)cc1: 1.83 nM and 3.8 nM
CCOC(=O)CN(C(=O)c1ccn2ncc(-c3ccc(C(=O)NC)cc3)c2c1)c1ccc(Cl)cc1: 128 nM and 59 nM and 108 nM
COC(=O)c1cc(Cl)ccc1N(C)C(=O)c1ccn2ncc(-c3ccc(C(N)=O)cc3)c2c1: 6.42 nM and 8 nM and 16 nM
CN(C(=O)c1ccn2ncc(-c3ccc(C(N)=O)cc3)c2c1)c1ccc(C#N)cn1: 469 nM and 230 nM

Study 4 — mode: agonist; endpoint: pEC50
Target: Beta-1 adrenergic receptor (ADRB1, Homo sapiens, UniProt P08588)
UniProt P08588, sequence (whole entry, looked up): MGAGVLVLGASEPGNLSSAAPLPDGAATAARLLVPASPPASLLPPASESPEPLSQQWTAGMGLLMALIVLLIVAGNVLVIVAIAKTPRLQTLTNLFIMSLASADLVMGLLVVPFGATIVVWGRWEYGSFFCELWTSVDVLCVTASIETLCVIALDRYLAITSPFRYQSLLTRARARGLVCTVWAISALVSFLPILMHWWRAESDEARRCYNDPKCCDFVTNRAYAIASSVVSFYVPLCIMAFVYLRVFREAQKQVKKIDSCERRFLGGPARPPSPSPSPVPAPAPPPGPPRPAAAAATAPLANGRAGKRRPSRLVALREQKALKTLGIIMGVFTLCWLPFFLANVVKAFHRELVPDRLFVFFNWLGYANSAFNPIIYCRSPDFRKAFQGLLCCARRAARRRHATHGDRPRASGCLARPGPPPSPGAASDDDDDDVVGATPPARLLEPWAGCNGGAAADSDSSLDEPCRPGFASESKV
Fc1ccc(-c2noc([C@@H]3Cc4[nH]cnc4CN3CCCc3ccccc3)n2)cc1Cl: ≤ 4.00
Clc1cccc(N2CCN(Cc3cnn(-c4ccccc4)c3)CC2)c1: ≤ 4.00
Cc1cc2ncn(-c3ccc4ccccc4n3)c2cc1C: ≤ 4.00
CCOCCN1C(=O)COC[C@@H]1[C@H](O)c1ccc(NC(=O)Cc2ccccc2)cc1: ≤ 4.00
O=C1c2c(nc(CNCc3cccc(Cl)c3)n2Cc2ccccc2)NCCN1CCOc1ccccc1: ≤ 4.00

Excerpt of the above (study 1):
COc1cc2c(N3CCN(C(=O)Nc4ccc(OC(C)C)cc4)CC3)ncnc2cc1OCCCN1CCCCC1: 108%
CNc1cc2c(Nc3cccc(Br)c3)ncnc2cn1: 94.4%
NC(=O)c1cccc(-c2cc(Nc3ccc(OC(F)(F)F)cc3)ncn2)c1: 95.7%
